Published values pooled from the literature.
Each numbered part is a random draw from the data of one study; scales do not carry over between parts.

Set 1
Target: Replicase polyprotein 1ab, polymerase (rep, Severe acute respiratory syndrome coronavirus 2, UniProt P0DTD1)
Observed: enzyme activity
Action: inhibitor
Concentration: 20 µM
Measurement: inhibition
SMILES = COc1ccc2c(c1)C=C1Cn3c-2c(C2CCCCC2)c2ccc(cc23)C(=O)NS(=O)(=O)N(C)CCOCCN(C)C1=O; result = -1.97%
SMILES = CCN1/C(=C/C(C)=O)Sc2ccc(OC)cc21; result = -0.81%
SMILES = CCN(CC)CCCCC(NC(=O)c1ccc([N+](=O)[O-])cc1)c1ccccc1 (centres unmarked); result = 2.61%
SMILES = CCCCNc1ccc(C(=O)OCCN(C)C)cc1; result = 24.8%
SMILES = OC(CCN1CCCCC1)(c1ccccc1)C1CCCCC1 (centres unmarked); result = 3.02%
SMILES = COc1ccc([C@H]2CNC(=O)C2)cc1OC1CCCC1; result = -3.82%
SMILES = O=C(Nc1ccc(C(O)(C(F)(F)F)C(F)(F)F)cc1)c1ccc(C(F)(F)F)cc1; result = 18.1%
SMILES = CC(=O)OCC(=O)[C@@]1(O)CC[C@H]2[C@@H]3CCC4=CC(=O)CC[C@]4(C)[C@@]3(F)[C@@H](O)C[C@@]21C; result = 8.77%
SMILES = COC(=O)C1=C(C#N)NC(C)=C(C(=O)OC(C)C)C1c1cccc([N+](=O)[O-])c1 (centres unmarked); result = 2.8%
SMILES = C[C@](N)(Cc1ccc(O)cc1)C(=O)O; result = 2.84%
SMILES = Cc1nc2n(c(=O)c1CCN1CCC(c3noc4cc(F)ccc34)CC1)CCCC2O (centres unmarked); result = -7.25%
SMILES = O=C(NO)c1cnc(N2CCN(S(=O)(=O)c3ccc4ccccc4c3)CC2)nc1; result = 1.65%
SMILES = O=C(CCn1cnc2c(=O)[nH]cnc21)Nc1ccc(C(=O)O)cc1; result = -2.26%
SMILES = CC(=O)OCC(=O)NCCCOc1cccc(CN2CCCCC2)c1; result = -2.18%
SMILES = CCCCNc1c(C(=O)OCC)c(C)nc2c1cnn2CC; result = -1.64%
SMILES = CCC(=O)OCN1C(=O)C=CC1=O; result = -2.04%
SMILES = O=C1c2ccccc2C(Cc2ccnc(F)c2)(Cc2ccnc(F)c2)c2ccccc21; result = -4.21%
SMILES = O=C(/C=C/c1ccc(O)c(O)c1)O[C@H](Cc1ccc(O)c(O)c1)C(=O)O; result = 46.6%
SMILES = O=C(Nc1ccc(CN2CCOCC2)cc1)c1ccc(-c2cccc(Cl)c2)o1; result = -4.97%
SMILES = C[C@H](N[C@@H](CCc1ccccc1)C(=O)O)C(=O)N1Cc2ccccc2C[C@H]1C(=O)O; result = -6.32%
SMILES = CS(=O)(=O)c1ccc(-c2nnc(/C=C/c3nnc(-c4ccc(C#N)cc4)o3)n2-c2ccccc2Cl)nc1; result = -1.75%
SMILES = NNC(=O)CSc1nc2scc(-c3ccccc3)c2c(=O)n1-c1ccccc1; result = -2.27%
SMILES = CCn1cc(-c2ccnc3[nH]c(-c4cccc(CN(C)C)c4)cc23)c(-c2ccc(NC(=O)N(C)C)cc2)n1; result = 4.76%
SMILES = CC(C)[C@](O)(c1ccc2cc(OC(F)F)c(OC(F)F)cc2c1)c1c[nH]nn1; result = 2.18%
SMILES = CCN(CC)CC1CCCCN1CC(=O)N1c2ccccc2C(=O)Nc2cccnc21 (centres unmarked); result = 2.62%

Set 2
Cell line: HEK-293T/ACE2
Concentration: 10 µM
Time: 16 h
Baseline: vehicle
Measurement: viability
Compound = COc1ncnc(NS(=O)(=O)c2ccc(N)cc2)c1OC; result = 99.3%
Compound = CC[C@H]1OC(=O)[C@H](C)[C@@H](O[C@H]2C[C@@](C)(OC)[C@@H](O)[C@H](C)O2)[C@H](C)[C@@H](O[C@@H]2O[C@H](C)C[C@H](N(C)C)[C@H]2O)[C@](C)(OC)C[C@@H](C)C(=O)[C@H](C)[C@@H](O)[C@]1(C)O; result = 101%
Compound = O=c1[nH]c(=O)n([C@H]2C[C@H](O)[C@@H](CO)O2)cc1C(F)(F)F; result = 77.8%

Set 3
Target: Sal-like protein 4, full length isoform A (SALL4, Homo sapiens, UniProt Q9UJQ4, residues 1-1053)
UniProt Q9UJQ4, sequence (whole entry, looked up): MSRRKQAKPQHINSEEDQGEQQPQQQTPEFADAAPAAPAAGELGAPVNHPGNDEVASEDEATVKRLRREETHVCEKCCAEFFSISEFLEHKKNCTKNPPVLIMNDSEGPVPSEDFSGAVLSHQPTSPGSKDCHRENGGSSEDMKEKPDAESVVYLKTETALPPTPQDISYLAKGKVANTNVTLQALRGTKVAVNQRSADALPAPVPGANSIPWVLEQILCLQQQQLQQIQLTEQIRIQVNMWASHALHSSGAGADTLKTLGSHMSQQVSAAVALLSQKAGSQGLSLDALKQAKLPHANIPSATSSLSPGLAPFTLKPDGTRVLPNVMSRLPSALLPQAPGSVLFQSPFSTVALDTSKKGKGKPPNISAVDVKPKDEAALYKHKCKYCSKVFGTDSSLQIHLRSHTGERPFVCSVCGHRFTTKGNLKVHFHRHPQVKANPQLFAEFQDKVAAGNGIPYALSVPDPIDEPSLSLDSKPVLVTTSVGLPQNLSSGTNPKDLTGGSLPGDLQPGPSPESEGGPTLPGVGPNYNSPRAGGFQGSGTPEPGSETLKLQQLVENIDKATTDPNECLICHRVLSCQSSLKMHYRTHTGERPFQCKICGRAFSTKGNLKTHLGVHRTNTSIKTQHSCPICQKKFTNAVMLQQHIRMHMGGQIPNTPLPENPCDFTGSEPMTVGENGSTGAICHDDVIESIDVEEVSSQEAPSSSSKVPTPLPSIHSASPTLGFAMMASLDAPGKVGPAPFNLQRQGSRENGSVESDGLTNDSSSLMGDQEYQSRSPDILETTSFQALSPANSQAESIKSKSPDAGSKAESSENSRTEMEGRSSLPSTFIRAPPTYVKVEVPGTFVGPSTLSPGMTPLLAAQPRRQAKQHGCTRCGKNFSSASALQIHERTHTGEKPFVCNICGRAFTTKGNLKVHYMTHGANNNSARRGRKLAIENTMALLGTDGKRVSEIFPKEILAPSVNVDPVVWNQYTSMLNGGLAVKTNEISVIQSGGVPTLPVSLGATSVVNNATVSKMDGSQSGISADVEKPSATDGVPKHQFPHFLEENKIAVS
Method: universal PBM
Form: double-stranded DNA, one strand shown
Sample: in vitro
Concentration: 600 nM
Setting: 8-mer, flanks averaged, mean of replicates
Direction: higher = stronger binding
Measurement: E-score
Oligonucleotide = AACCCAGT; result = -0.136
Oligonucleotide = CATAAAAC; result = 0.277
Oligonucleotide = GTCAATCA; result = 0.0871
Oligonucleotide = CATACGCC; result = 0.103
Oligonucleotide = ATTAACCC; result = 0.102
Oligonucleotide = ACAGCCAT; result = 0.0112
Oligonucleotide = CTCGAGAG; result = -0.218
Oligonucleotide = CGCTCTGA; result = -0.222

Set 4
Target: Interferon regulatory factor 5, full length, phosphomimetic (IRF5, Homo sapiens, UniProt Q13568-2, residues 1-514, K96S/S451D/S453D/S456D/S462D)
Method: protein-binding microarray
Form: double-stranded DNA, one strand shown
Sample: in vitro
Concentration: 250 nM
Setting: 60-bp whole probe
Added: salmon DNA 0.4 mg/ml
Baseline: random background probes
Direction: higher = stronger binding
Measurement: log fluorescence
Shared flanks, not repeated: GCCTAGCAC … GTCTTGATTCGCTTGACGCTGCTG
Oligonucleotide = GACGATGTCAGTATCGAGACGTGCTAG; result = 1.78 z-score
Oligonucleotide = TTAGTTTTCGACTATCGGTTAGTGCTA; result = 8.41 z-score
Oligonucleotide = GACGCTATCAGTATCGAGACGTGCTAG; result = 3.58 z-score
Oligonucleotide = TTAGGTATCGACTTTCGATTAGTGCTA; result = 9.25 z-score
Oligonucleotide = TCACCTCCAGGTTCTCTGACTGTGCTA; result = -0.282 z-score
Oligonucleotide = TTAGGTTTCTGGTATCGGTTAGTGCTA; result = 7.31 z-score
Oligonucleotide = TTACGTTTCGGGTATCGGTTAGTGCTA; result = 9.94 z-score
Oligonucleotide = AACCACATAGGAAGAACAACGTGCTAG; result = 0.0531 z-score

Set 5
Target: Histone acetyltransferase KAT6A, winged helix 2, GST fusion (KAT6A, Homo sapiens, UniProt Q92794, residues 85-181)
Method: protein binding microarray
Form: double-stranded DNA, one strand shown
Sample: in vitro
Concentration: not given
Setting: 8-mer, flanks averaged, mean of 2 arrays, mostly near background
Baseline: not given
Direction: higher = stronger binding
Measurement: E-score
Construct (chain): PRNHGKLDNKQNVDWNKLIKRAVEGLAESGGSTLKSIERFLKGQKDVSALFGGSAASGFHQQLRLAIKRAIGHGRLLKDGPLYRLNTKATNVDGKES
Oligonucleotide = GATTTCAC; result = 0.0813
Oligonucleotide = AGCTAGAC; result = -0.0598
Oligonucleotide = AATTGAAC; result = -0.15
Oligonucleotide = CGCCCCAC; result = 0.0952
Oligonucleotide = CACGAACA; result = 0.227
Oligonucleotide = CGATTCGC; result = 0.162
Oligonucleotide = AACCTACA; result = 0.0717
Oligonucleotide = GTCTTTAA; result = 0.00505

Mixed results
DDX3X helicase core: ATP-dependent RNA helicase DDX3X, helicase core (DDX3X, Homo sapiens, UniProt O00571, residues 132-607)
UniProt O00571, sequence (132-607, looked up): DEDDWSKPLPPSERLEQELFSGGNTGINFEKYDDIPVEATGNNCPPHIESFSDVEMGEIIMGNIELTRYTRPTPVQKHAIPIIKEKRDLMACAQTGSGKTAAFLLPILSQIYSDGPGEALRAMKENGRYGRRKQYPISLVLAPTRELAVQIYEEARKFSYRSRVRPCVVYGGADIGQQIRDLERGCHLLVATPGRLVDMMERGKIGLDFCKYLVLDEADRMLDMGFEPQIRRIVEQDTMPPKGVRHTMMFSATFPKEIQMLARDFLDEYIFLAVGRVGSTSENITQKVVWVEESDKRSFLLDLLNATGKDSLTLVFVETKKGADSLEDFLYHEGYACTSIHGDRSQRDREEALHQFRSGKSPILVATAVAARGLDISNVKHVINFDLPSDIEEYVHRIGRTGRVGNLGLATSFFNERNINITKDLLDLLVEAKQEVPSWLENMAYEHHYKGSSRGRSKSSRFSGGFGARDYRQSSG
Molecule = CUUC; target = DDX3X helicase core; test = RNA Bind-n-Seq; test system = RNA, in vitro; setting = 90 pmol, 4-mer, random 30-nt RNA, single round, added: 3 µM iPr-DMDA-PatA, 2 mM ADP, 2 mM phosphate; how to read = baseline: input library, higher = stronger binding; measurement = 4-mer enrichment; result = 0.841 fold
Molecule = CC(C)Nc1cccnc1N1CCN(C(=O)c2cc3cc(NS(C)(=O)=O)ccc3[nH]2)CC1; target = Replicase polyprotein 1ab, main protease (rep, Severe acute respiratory syndrome coronavirus 2, UniProt P0DTD1); test = fluorogenic substrate cleavage, inhibitor; setting = 60 min preincubation, 37 °C, added: 1 mM DTT; measurement = IC50; result = > 20 µM
Molecule = CGGA; target = DDX3X helicase core; test = RNA Bind-n-Seq; test system = RNA, in vitro; setting = 90 pmol, 4-mer, random 30-nt RNA, single round, added: 3 µM iPr-DMDA-PatA, 2 mM ADP, 2 mM phosphate; how to read = baseline: input library, higher = stronger binding; measurement = 4-mer enrichment; result = 0.985 fold
Molecule = [O-][S+](c1ccccc1)c1ccc2nnnn2n1 (centres unmarked); target = Replicase polyprotein 1ab, 3C-like proteinase (rep, Middle East respiratory syndrome-related coronavirus, UniProt K9N7C7); test = enzyme activity, inhibitor; test system = MERS-CoV; measurement = IC50; result = 10.1 µM

Some of these lines once more (set 1):
SMILES = OC(CCN1CCCCC1)(c1ccccc1)C1CCCCC1 (centres unmarked); result = 3.02%
SMILES = CCC(=O)OCN1C(=O)C=CC1=O; result = -2.04%
SMILES = COc1ccc2c(c1)C=C1Cn3c-2c(C2CCCCC2)c2ccc(cc23)C(=O)NS(=O)(=O)N(C)CCOCCN(C)C1=O; result = -1.97%
SMILES = CCCCNc1c(C(=O)OCC)c(C)nc2c1cnn2CC; result = -1.64%
